Experimental data pooled from the literature.
± gives the spread as reported.

`O=C(NO)[C@H]1COC(c2c[nH]c3ccc(F)cc23)=N1` gave a thermodynamic solubility of 36.6 µM (aqueous buffer; pH 7.4).
`c1cc(-c2ccc3ncnc(NC4CCOCC4)c3c2)cc(N2CCOCC2)c1` gave a thermodynamic solubility of 200 µM (0.1 M phosphate buffer; pH 7.4, 25 °C).
`COc1ccc([N+](=O)[O-])cc1NC(=O)C(C)Oc1ccccc1C` (stereo not shown) has a thermodynamic solubility of under 10.7 µM (aqueous buffer; pH 7.4).
`COCc1nn(Cc2ccc(Cn3ccccc3=O)cc2)cc1C(=O)NCc1nccc(OC)c1C` gave a thermodynamic solubility of 970 µg/mL (FaSSGF; 4 h, pH 1.6, presumed amorphous solid).
`c1cc(-c2ccc3ncnc(Nc4ncco4)c3c2)cc(N2CC3(COC3)C2)c1` gave a thermodynamic solubility of 3 µM (0.1 M phosphate buffer; pH 7.4, 25 °C).
`Cc1cc(-n2c(=O)[nH]c(=O)n(C)c2=O)ccc1Oc1ccc(SC(F)(F)F)cc1` gave a thermodynamic solubility of 10.7 ± 1.07 mg/g (shake-flask; Cremophor ELP; 37 °C, water up to 0.5% w/w).
With `COc1ccccc1-n1nnnc1SCC(=O)Nc1ccccc1SC` the thermodynamic solubility was under 7.14 µM (aqueous buffer; pH 7.4).
For `CN1CCN(c2cccc(-c3ccc4ncnc(Nc5ncco5)c4c3)c2)CC1`, the thermodynamic solubility was 520 µM (0.1 M phosphate buffer; pH 7.4, 25 °C).
`COc1c(/C=C/c2ccc(NS(C)(=O)=O)cc2)cc(-n2ccc(=O)[nH]c2=O)cc1C(C)(C)C` has a thermodynamic solubility of -7.7 log S (50 mM sodium phosphate; 48 h, pH 7.4, 25 °C, crystalline free acid).
`COc1cc(-c2nnc(SCC(N)=O)n2C)cc(OC)c1OC` gave a thermodynamic solubility of over 11100 µM (aqueous buffer; pH 7.4).
For `C[C@@H]1CN(c2cccc(-c3ccc4ncnc(Nc5ncco5)c4c3)c2)C[C@H](C)O1`, the thermodynamic solubility was 11 µM (0.1 M phosphate buffer; pH 7.4, 25 °C).
With `CC(Sc1nc2ccccc2[nH]1)C(=O)Nc1ccc(S(N)(=O)=O)cc1` (stereo not shown) the thermodynamic solubility was 20.8 µM (aqueous buffer; pH 7.4).
`CCOC(=O)C1=C(C)NC(C)=C(C(=O)OC)C1c1cccc(Cl)c1Cl` (stereo not shown) gave a thermodynamic solubility of 105 ± 8.22 mg/g (shake-flask; Cremophor ELP; 37 °C, water up to 0.5% w/w).
For `Clc1ccc(Nc2ncnc3ccc(-c4cccc(N5CCOCC5)c4)cc23)cc1Cl`, the thermodynamic solubility was 4 µM (0.1 M phosphate buffer; pH 7.4, 25 °C).
The thermodynamic solubility of `COC(=O)Nc1nc2ccc(Sc3ccccc3)cc2[nH]1` is reported as 1.75 ± 0.06 mg/g (shake-flask; Cremophor ELP; 37 °C, water up to 0.5% w/w).
`CC1(CNC(=O)c2ccc(-c3ccccc3)cc2)NC(=O)NC1=O` (stereo not shown) has a thermodynamic solubility of 40.1 µM (aqueous buffer; pH 7.4).
The thermodynamic solubility of `CC(=O)[C@H]1CC[C@H]2[C@@H]3CCC4=CC(=O)CC[C@]4(C)[C@H]3CC[C@]12C` is reported as 35 ± 1.23 mg/g (shake-flask; Cremophor ELP; 37 °C, water up to 0.5% w/w).
For `CC[C@H](C)[C@H](NC(=O)[C@H](Cc1ccccc1)NC(=O)[C@H](Cc1ccc(O)cc1)NC(=O)[C@@H]1CCCN1C(=O)[C@@H](N)Cc1ccc(O)cc1)C(=O)N1CCC[C@H]1C(=O)N[C@H](CCCCN)C(=O)NCC(=O)N[C@H](CCCCN)C(=O)NCC(=O)N[C@@H](CCC(=O)O)C(=O)N[C@H](C(=O)N[C@@H](CC(N)=O)C(=O)N[C@@H](CC(C)C)[C@@H](O)CC(=O)N[C@H](C(=O)N[C@@H](C)C(=O)N[C@@H](CCC(=O)O)C(=O)N1CCC[C@@H]1C(=O)N[C@@H](CCCCNC(=O)CCC(=O)O[C@H]1CC[C@@]2(C)C(=CC[C@H]3[C@@H]4CC[C@H]([C@H](C)CCCC(C)C)[C@@]4(C)CC[C@@H]32)C1)C(N)=O)C(C)C)C(C)C`, the thermodynamic solubility was over 713 µg/mL (50 mM phosphate buffer; pH 6.5).
`O=C(Cn1nc(-c2cccc([N+](=O)[O-])c2)c2ccccc2c1=O)NCC1CCCO1` (stereo not shown) gave a thermodynamic solubility of 19.7 µM (aqueous buffer; pH 7.4).
`CCOc1nc2cccc(C(=O)OC(C)OC(=O)OC3CCCCC3)c2n1Cc1ccc(-c2ccccc2-c2nnn[nH]2)cc1` (stereo not shown) gave a thermodynamic solubility of 15.6 ± 0.54 mg/g (shake-flask; Cremophor ELP; 37 °C, water up to 0.5% w/w).
`c1coc(Nc2ncnc3ccc(-c4cncc(N5CCOCC5)n4)cc23)n1` gave a thermodynamic solubility of 19 µM (0.1 M phosphate buffer; pH 7.4, 25 °C).
`COc1ccc(Cl)cc1C(=O)NCCc1ccc(S(=O)(=O)NC(=O)NC2CCCCC2)cc1` has a thermodynamic solubility of 2.82 ± 0.58 mg/g (shake-flask; Cremophor ELP; 37 °C, water up to 0.5% w/w).
The thermodynamic solubility of `CN(c1ncco1)c1ncnc2ccc(-c3cccc(N4CCOCC4)c3)cc12` is reported as 800 µM (0.1 M phosphate buffer; pH 7.4, 25 °C).
`CC[C@H](C)C(=O)N1CCC(NC(=O)Nc2ccc(OC(F)(F)F)c(F)c2)CC1` gave a thermodynamic solubility of 14000 µg/mL (PEG 400).
`O=C(O)c1cc(-c2ccc(F)cc2F)ccc1O` gave a thermodynamic solubility of 139 ± 7.14 mg/g (shake-flask; Cremophor ELP; 37 °C, water up to 0.5% w/w).
The thermodynamic solubility of `c1cc(-c2ccc3ncnc(Nc4ncco4)c3c2)cc(N2CC3CCC(C2)O3)c1` is reported as 0.4 µM (0.1 M phosphate buffer; pH 7.4, 25 °C).
For `CCC(C)n1ncn(-c2ccc(N3CCN(c4ccc(OCC5COC(Cn6cncn6)(c6ccc(Cl)cc6Cl)O5)cc4)CC3)cc2)c1=O` (stereo not shown), the thermodynamic solubility was 2.5 ± 0.41 mg/g (shake-flask; Cremophor ELP; 37 °C, water up to 0.5% w/w).
With `Cc1c(NS(=O)(=O)c2cccc3nonc23)c(=O)n(-c2ccccc2)n1C` the thermodynamic solubility was 14.2 µM (aqueous buffer; pH 7.4).

Excerpt of the above:
`CC1(CNC(=O)c2ccc(-c3ccccc3)cc2)NC(=O)NC1=O` (stereo not shown) has a thermodynamic solubility of 40.1 µM (aqueous buffer; pH 7.4).
For `C[C@@H]1CN(c2cccc(-c3ccc4ncnc(Nc5ncco5)c4c3)c2)C[C@H](C)O1`, the thermodynamic solubility was 11 µM (0.1 M phosphate buffer; pH 7.4, 25 °C).
The thermodynamic solubility of `CN(c1ncco1)c1ncnc2ccc(-c3cccc(N4CCOCC4)c3)cc12` is reported as 800 µM (0.1 M phosphate buffer; pH 7.4, 25 °C).
